Results collected from several papers.
Each line is one published result; not all experiments were run side by side.
Target: Cytochrome P450 2C9 (CYP2C9, Homo sapiens, UniProt P11712)
UniProt P11712, sequence (whole entry, looked up): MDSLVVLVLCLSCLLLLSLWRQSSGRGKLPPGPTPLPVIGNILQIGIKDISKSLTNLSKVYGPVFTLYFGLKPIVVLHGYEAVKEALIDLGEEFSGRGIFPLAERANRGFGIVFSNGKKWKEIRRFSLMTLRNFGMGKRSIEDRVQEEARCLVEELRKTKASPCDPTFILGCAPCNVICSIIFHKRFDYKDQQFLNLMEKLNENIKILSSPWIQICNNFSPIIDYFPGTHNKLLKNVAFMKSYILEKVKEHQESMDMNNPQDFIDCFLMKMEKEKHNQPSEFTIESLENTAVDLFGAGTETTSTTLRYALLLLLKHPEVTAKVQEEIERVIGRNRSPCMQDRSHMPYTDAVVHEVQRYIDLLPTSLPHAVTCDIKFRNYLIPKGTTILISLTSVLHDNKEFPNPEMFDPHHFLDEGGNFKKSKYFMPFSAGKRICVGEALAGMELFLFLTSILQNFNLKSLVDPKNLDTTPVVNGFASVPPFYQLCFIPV

SMILES | assay | system | conditions | scale | measurement | result
Nc1ccc(S(=O)(=O)Nc2ccnn2-c2ccccc2)cc1 | enzyme activity, inhibitor | pooled human liver microsomes | concentration not given | – | remaining activity | 12.6%
N#Cc1ccc(C(O)c2ccc(C#N)cc2)cc1 | inhibitor | – | – | – | IC50 | 134 µM
CNC(=O)Oc1cc(C)c(SC)c(C)c1 | inhibitor | human liver microsomes | 10 µM, pH 7.4, together with: diclofenac | – | inhibition | 16.3%
CC(=O)C(O)C(c1ccccc1)c1c(O)c2ccccc2oc1=O (stereo not shown) | enzyme activity, inhibitor | – | pH 7.4 | – | Ki | 0.94 µM
CC(C)(O)c1ccccc1CC[C@@H](SCC1(CC(=O)O)CC1)c1cccc(/C=C/c2ccc3ccc(Cl)cc3n2)c1 | inhibitor | human liver microsomes | 10 µM, pH 7.4, together with: diclofenac | – | inhibition | 97.5%
CC[C@@H]1CN2CC[C@@]3(O)C(=Nc4cccc(OC)c43)[C@@H]2C[C@@H]1/C(=C\OC)C(=O)OC | enzyme activity, inhibitor | human liver microsomes | together with: diclofenac 4'-hydroxylation | – | IC50 | > 45 µM
CNC(=O)O/N=C/C(C)(C)S(C)(=O)=O | inhibitor | human liver microsomes | 2 µM, pH 7.4, together with: diclofenac | – | inhibition | < 0%
CC(=O)CC(c1ccc(O)cc1)c1c(O)c2ccccc2oc1=O (stereo not shown) | enzyme activity, inhibitor | human, liver microsomes | – | – | Ki | 17 µM
C=C[C@H]1CN2CCc3c([nH]c4cccc(OC)c34)[C@@H]2C[C@@H]1/C(=C\OC)C(=O)OC | enzyme activity, inhibitor | human liver microsomes | together with: diclofenac 4'-hydroxylation | – | IC50 | 15.7 µM
CCCSc1ccc2nc(NC(=O)OC)[nH]c2c1 | inhibitor | human liver microsomes | 2 µM, pH 7.4, together with: diclofenac | – | inhibition | < 0%
CC(=O)CC(c1ccccc1)c1c(O)c2ccc(O)cc2oc1=O (stereo not shown) | enzyme activity, inhibitor | – | – | – | Ki | 10 µM
c1cc2c(cc1[C@H]1OC[C@H]3[C@@H]1CO[C@@H]3c1ccc3c(c1)OCO3)OCO2 | mechanism-based inhibitor | human liver microsomes | concentration not given, 60 min | – | activity recovery | no effect
CC(C(=O)O)c1ccc(C(=O)c2cccs2)cc1 (racemic) | inactivator | – | together with: (S)-warfarin 7-hydroxylation | reference: (S)-warfarin over (S)-flurbiprofen and diclofenac | inactivation efficiency ratio | ~3 fold

Repeated from above:
SMILES | assay | system | conditions | scale | measurement | result
CNC(=O)Oc1cc(C)c(SC)c(C)c1 | inhibitor | human liver microsomes | 10 µM, pH 7.4, together with: diclofenac | – | inhibition | 16.3%
